Published values gathered from unrelated publications.
Protocols differ between the studies behind these lines.
HDAC1: Histone deacetylase 1 (HDAC1, Homo sapiens, UniProt Q13547)
UniProt Q13547, sequence (whole entry, looked up): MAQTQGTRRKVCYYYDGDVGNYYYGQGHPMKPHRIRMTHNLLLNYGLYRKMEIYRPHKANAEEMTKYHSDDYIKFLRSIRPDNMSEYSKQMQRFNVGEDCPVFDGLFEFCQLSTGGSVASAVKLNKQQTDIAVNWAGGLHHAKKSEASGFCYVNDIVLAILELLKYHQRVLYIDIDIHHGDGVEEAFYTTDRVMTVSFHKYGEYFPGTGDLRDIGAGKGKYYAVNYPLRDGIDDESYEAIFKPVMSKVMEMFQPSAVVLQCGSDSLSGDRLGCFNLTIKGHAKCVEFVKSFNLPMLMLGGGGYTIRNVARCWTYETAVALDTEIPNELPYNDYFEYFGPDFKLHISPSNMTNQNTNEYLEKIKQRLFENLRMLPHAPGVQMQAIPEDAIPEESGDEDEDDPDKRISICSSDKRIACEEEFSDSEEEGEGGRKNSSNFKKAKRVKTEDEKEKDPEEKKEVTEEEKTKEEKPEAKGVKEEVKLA
UniProt P08575, sequence (whole entry, looked up): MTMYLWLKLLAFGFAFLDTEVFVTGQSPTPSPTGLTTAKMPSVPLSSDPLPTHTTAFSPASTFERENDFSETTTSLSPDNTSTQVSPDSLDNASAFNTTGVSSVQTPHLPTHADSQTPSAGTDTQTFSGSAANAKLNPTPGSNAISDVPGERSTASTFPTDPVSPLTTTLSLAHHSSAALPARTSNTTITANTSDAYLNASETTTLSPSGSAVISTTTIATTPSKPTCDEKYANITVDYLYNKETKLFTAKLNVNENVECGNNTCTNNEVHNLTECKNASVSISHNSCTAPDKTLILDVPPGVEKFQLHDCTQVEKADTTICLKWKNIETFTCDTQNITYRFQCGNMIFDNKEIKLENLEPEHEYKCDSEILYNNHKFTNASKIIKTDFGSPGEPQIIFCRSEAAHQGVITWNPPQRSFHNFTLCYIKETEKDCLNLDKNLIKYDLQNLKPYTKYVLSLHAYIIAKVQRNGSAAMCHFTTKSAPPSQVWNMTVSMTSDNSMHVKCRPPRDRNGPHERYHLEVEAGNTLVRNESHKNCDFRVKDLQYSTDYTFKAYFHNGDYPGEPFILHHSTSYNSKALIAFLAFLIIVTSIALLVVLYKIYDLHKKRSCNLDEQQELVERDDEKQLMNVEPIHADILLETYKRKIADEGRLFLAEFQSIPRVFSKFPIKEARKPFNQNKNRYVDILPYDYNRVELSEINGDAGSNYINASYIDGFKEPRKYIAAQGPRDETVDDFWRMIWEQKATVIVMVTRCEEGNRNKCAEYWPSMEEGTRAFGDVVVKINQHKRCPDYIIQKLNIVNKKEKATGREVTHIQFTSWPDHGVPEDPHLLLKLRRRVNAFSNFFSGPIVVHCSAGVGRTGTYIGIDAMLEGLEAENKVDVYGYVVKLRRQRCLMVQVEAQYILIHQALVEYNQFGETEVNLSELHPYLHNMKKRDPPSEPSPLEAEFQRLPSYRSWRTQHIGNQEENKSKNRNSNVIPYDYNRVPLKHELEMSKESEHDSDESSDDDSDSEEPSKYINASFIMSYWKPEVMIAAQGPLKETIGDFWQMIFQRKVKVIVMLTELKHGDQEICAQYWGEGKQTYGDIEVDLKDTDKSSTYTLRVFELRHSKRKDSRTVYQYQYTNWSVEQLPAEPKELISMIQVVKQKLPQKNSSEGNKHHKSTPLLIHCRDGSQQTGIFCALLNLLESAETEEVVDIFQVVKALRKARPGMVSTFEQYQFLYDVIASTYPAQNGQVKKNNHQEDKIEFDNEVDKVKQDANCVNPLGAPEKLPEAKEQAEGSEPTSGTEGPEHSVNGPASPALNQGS
UniProt Q9NVM4, sequence (whole entry, looked up): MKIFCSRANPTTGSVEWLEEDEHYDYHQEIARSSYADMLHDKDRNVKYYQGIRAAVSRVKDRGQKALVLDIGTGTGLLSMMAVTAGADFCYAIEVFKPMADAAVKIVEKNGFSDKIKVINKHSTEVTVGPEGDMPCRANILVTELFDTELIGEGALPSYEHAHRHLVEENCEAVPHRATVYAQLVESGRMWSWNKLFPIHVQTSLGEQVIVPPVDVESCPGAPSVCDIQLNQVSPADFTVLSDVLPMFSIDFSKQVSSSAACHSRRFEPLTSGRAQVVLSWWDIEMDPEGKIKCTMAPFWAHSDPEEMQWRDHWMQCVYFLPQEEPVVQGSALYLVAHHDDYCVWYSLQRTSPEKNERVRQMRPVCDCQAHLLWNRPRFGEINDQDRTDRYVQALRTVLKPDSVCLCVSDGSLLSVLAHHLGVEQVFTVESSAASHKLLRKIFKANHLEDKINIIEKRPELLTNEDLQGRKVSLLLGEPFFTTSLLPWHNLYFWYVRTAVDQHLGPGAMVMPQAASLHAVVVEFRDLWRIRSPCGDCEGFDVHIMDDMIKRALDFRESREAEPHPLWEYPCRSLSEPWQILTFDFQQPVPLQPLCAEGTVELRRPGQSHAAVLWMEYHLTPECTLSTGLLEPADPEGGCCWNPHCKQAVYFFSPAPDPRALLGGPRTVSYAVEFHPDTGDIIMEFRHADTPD
UniProt P43490, sequence (whole entry, looked up): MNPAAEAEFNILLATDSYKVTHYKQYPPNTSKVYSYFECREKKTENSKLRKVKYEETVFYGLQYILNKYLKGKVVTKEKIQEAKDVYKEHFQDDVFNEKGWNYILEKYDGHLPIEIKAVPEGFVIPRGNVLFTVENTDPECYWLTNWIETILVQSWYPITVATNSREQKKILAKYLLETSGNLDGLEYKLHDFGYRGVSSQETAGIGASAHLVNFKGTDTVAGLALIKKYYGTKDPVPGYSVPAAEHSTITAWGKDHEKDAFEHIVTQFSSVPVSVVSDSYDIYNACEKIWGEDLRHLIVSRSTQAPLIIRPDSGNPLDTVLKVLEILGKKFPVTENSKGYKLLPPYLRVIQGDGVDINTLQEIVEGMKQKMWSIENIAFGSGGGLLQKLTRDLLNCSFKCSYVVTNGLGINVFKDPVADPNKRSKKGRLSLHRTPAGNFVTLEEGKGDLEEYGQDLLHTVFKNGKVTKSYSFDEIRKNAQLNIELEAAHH
UniProt P51531, sequence (whole entry, looked up): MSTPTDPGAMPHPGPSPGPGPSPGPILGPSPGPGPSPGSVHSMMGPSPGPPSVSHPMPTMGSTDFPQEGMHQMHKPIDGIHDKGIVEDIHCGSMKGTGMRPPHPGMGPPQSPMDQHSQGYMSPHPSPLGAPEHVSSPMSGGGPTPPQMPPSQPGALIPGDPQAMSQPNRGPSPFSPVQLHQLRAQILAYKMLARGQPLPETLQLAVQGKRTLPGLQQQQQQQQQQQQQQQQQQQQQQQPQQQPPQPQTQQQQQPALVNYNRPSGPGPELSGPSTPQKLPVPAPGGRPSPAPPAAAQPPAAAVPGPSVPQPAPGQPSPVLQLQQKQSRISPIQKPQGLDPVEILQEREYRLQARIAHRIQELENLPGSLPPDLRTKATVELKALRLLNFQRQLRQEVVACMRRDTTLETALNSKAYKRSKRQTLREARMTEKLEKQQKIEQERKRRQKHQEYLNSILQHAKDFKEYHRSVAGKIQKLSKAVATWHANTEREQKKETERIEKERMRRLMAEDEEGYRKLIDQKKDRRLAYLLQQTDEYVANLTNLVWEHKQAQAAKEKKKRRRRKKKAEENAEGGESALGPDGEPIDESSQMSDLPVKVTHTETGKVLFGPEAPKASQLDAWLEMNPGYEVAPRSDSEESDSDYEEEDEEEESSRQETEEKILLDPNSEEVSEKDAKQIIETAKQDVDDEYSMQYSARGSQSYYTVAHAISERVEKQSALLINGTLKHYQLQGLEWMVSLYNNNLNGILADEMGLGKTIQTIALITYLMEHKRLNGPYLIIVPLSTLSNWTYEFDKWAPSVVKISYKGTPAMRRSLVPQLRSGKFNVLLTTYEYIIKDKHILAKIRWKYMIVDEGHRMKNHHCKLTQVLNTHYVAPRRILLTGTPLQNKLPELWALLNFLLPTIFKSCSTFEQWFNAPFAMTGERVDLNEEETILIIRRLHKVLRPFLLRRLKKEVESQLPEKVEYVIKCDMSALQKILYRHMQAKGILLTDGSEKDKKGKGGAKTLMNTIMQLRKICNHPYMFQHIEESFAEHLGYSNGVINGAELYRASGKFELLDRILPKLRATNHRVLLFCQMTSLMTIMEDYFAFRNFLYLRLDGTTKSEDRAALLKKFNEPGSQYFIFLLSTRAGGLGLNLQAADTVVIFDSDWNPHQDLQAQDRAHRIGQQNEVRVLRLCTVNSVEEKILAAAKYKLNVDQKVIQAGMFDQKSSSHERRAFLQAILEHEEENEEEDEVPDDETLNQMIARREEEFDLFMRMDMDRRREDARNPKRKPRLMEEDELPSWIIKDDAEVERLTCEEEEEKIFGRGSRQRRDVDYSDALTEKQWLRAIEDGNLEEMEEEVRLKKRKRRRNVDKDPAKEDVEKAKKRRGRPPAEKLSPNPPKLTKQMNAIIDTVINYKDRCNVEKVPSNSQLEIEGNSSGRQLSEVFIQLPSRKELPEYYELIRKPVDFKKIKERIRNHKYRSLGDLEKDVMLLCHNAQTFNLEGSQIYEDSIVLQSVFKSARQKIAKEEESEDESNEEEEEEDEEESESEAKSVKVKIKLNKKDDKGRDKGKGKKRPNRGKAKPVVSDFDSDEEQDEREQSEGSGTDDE
UniProt P25105, sequence (whole entry, looked up): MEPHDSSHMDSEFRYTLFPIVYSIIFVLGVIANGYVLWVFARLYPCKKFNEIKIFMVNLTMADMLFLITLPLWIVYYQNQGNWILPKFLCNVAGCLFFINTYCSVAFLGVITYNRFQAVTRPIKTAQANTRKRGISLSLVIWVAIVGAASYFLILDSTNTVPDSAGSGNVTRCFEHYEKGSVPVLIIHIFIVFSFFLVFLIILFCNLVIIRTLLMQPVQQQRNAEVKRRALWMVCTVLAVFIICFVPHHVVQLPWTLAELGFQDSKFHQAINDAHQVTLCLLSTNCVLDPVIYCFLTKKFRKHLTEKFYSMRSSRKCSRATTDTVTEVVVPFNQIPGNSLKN

The inhibition of `COc1cc(-c2cn(C)c(=O)c3cnccc23)cc(OC)c1CN(C)C` is reported as -9.02% (SMARCA2 (Homo sapiens, UniProt P51531); 1 µM).
For `CC(C)C[C@H](NC(=O)CNC(=O)[C@H](C)NC(=O)[C@H](C)NC(=O)[C@H](C)NC(=O)CNC(=O)CCCCNC(=O)CCCCNC(=O)CCCCNC(=O)[C@H](CCCCN)NC(=O)[C@H](Cc1ccc(O)cc1)NC(=O)[C@@H](N)Cc1c[nH]c2ccccc12)C(=O)N[C@@H](CC(C)C)C(=O)N[C@@H](CO)C(N)=O`, the inhibition was 13% (NPBWR1 (Homo sapiens, UniProt P48145); calcium signal, antagonist; 10 µM).
`CCCCCCCCCCCCNC(=S)NCCCC[C@H](NC(=O)OCc1ccccc1)C(=O)N[C@@H](Cc1c[nH]c2ccccc12)C(=O)NC(C)C` gave an inhibition of less than 5% (SIRT6 (Homo sapiens, UniProt Q8N6T7); enzyme activity, inhibitor; 10 µM, with: myristoylated substrate).
`Cc1ccc(CNC(=O)[C@H](CCc2ccccc2)NC(=O)[C@H](CCc2ccccc2)NC(=O)Cc2cccc(Oc3ccccc3)c2)cc1` gave an inhibition of 5% (Procathepsin L (CTSL, Homo sapiens, UniProt P07711); enzyme activity, inhibitor; 100 µM).
`O=C(Nc1ccc(C(F)F)cc1)[C@H](CC1CCCCC1)Nc1nn2c(=O)ccnc2s1` gave an inhibition of 6% (PTPRC (Homo sapiens, UniProt P08575); enzyme activity, inhibitor; 10 µM).
`O=C1c2sc(-c3ccc(N4CCC(F)C4)nc3F)nc2CCN1c1cccnc1` (stereo not shown) has an inhibition of 19% (PTAFR (Homo sapiens, UniProt P25105); ligand displacement, radioligand; 1 µM).
`C[Si]1(C[C@H](CN)CC(=O)O)CCCC1` has an inhibition of -7% (nicotinic acetylcholine receptor, rat; binding, radioligand binding; 70 µM, with: [3H]cytisine).
With `O=C(N1CCCC1)n1ccnn1` the inhibition was greater than 95% (Faah (Mus musculus, UniProt O08914); serine hydrolase activity, inhibitor, competitive gel-based ABPP; mouse T-cell proteome; 1 µM, 30 min, 37 °C).
For `Cc1c(COc2cc(OCc3cccc(C#N)c3)c(CN3CCCC[C@@H]3C(=O)O)cc2Cl)cccc1-c1cccc(OCc2ccc(/C=C/C(=O)NO)cc2)c1`, the inhibition was 27.4% (HDAC1; enzyme activity, inhibitor; 1 µM).
With `Cc1nc2c(F)cc(-c3nc(Nc4ccc(CNC(=O)CCCCCCC(=O)NO)cc4)ncc3F)cc2n1C(C)C` the inhibition was 11% (TRPM7 (Homo sapiens, UniProt Q96QT4); kinase activity; 1 µM).
`CN(C)C/C=C/C(=O)Nc1ccc2nc(NCCCCCN(C)C)nc(NCCCCCCN(C)C)c2c1` gave an inhibition of 85% (PRMT7 (Homo sapiens, UniProt Q9NVM4); enzyme activity, inhibitor, radiometric; 50 µM).
With `N#Cc1c(Nc2ccccc2C(F)(F)F)s[nH]c1=O` the inhibition was 3% (NAMPT (Homo sapiens, UniProt P43490); enzyme activity, inhibitor; 10 µM).
`Cc1c(COc2cc(OCc3cccc(C#N)c3)c(CNC(CO)(CO)CO)cc2Cl)cccc1-c1cccc(OCCCCCCC(=O)NO)c1` has an inhibition of 76.6% (HDAC1; enzyme activity, inhibitor; 1 µM).
With `Cn1cc(-c2ccc3ccccc3c2)c2ccc(Cl)nc21` the inhibition was 55.8% (Gag-Pol polyprotein, integrase (gag-pol, Human immunodeficiency virus type 1 group M subtype B, UniProt P04585); enzyme activity, inhibitor; 10 µM).
`Cc1ccc(-c2nn(-c3ccc(S(C)(=O)=O)cc3)cc2/C=N/N=C2/NC(=O)CS2)cc1` gave an inhibition of 26.7% (EGFR (Homo sapiens, UniProt P00533); kinase activity, inhibitor; 0.01 µM).
`C[Si](C)(C)C[C@@H](CN)CC(=O)O` has an inhibition of 1% (nicotinic acetylcholine receptor, rat; binding, radioligand binding; 75 µM, with: [3H]cytisine).
